Measured values gathered from unrelated publications.
Compare with care: the assays were run in different laboratories. Several values in a cell are separate wells, animals, samples, runs or records. ± marks the error that the study gave.
MAPK8: Mitogen-activated protein kinase 8 (MAPK8, Homo sapiens, UniProt P45983)

Compound	target	assay	test system	conditions	scale	measurement	value
CCC1(CC)C(=O)N(c2cccc(C(=O)N3CCN(Cc4ccc(Br)cc4)CC3)c2)C1=O	Dipeptidyl peptidase 8 (Homo sapiens, UniProt Q6V1X1)	enzyme activity, inhibitor	–	5 µM	–	activity vs control	< 5%
COC(=O)[C@@]1(C)C=C(C(=O)OC(C)(C)C)C(=O)CC1	MAPK8	D-peptide binding, inhibitor, FP peptide displacement	–	500 µM	lower is stronger displacement	fraction bound	0.168
CN(C)CCCSC(=S)N1CCN(C(=O)/C=C/c2coc3ccccc3c2=O)CC1	Nucleoprotein (N, Tomato spotted wilt virus, UniProt P25999)	binding, microscale thermophoresis	–	0.4883 µM	dose series	normalised MST response	0.0321
CC1(C)C[C@@H](Nc2cccc(-c3sc(C(=O)O)c(OCC(=O)O)c3Cl)c2)CCN1S(=O)(=O)Cc1cccc(NC(=O)CN2CCC(c3ccc4c(c3)oc(=O)n4C3CCC(=O)NC3=O)CC2)c1 (some centres unmarked)	PTPN2 (Homo sapiens, UniProt P17706)	degrader, bio-layer interferometry	–	1000 nM, biotinylated protein immobilised	higher = more binding	BLI binding response	0.477 a.u. and 0.466 a.u.
Cc1cc(NC(=O)[C@H](O)c2cc(F)cc(F)c2)ccc1-c1cnc(N)c(C(=O)NC(C)C)c1	HASPIN (Homo sapiens, UniProt Q8TF76)	binding, competition with immobilised ligand	–	1 µM	–	remaining binding	97%
CCOC(=O)C(CC)(CCCSCCCCCCNC(=O)OC(C)(C)C)NC(=O)c1ccc(C2CC2)c(Cc2ccc(F)cc2)n1 (centres unmarked)	Cnr2 (Mus musculus, UniProt P47936)	cAMP, agonist	–	–	–	Emax	78%
CC[C@H](C)[C@@H]1NC(=O)[C@H](Cc2c[nH]c3ccccc23)NC(=O)[C@H](C)NC(=O)[C@H](Cc2ccc(O)cc2)NC(=O)CNC(=O)[C@H](Cc2ccccc2)N(C)C(=O)[C@H](C)N(C)C(=O)[C@H](Cc2ccc(O)cc2)NC(=O)[C@H](C(C)C)NC(=O)[C@H](CC(C)C)NC(=O)[C@H](Cc2ccccc2)NC(=O)CSC[C@@H](C(=O)NCC(N)=O)NC1=O	STING1 (Homo sapiens, UniProt Q86WV6, H232R)	thermal stability, DSF	–	50 µM	–	ΔTm	0.45 °C
O=C(NCCCCOP(=O)(O)OP(=O)(O)OP(=O)(O)O)OCC1c2ccccc2-c2ccccc21	DNA polymerase beta (POLB, Homo sapiens, UniProt P06746)	substrate	–	undamaged template, G	relative to: dCTP over compound	efficiency relative to dCTP	60 fold
CCCCCc1ccc(C(=O)N2c3ccc(F)cc3[C@@H](Nc3ccccc3)C[C@H]2C)cc1	Ecdysone receptor (Aedes albopictus, UniProt Q9U3Y4)	ligand binding, inhibitor	intact cells	together with: [3H]ponasterone A	direction not given	pIC50 Z-score	-1.67
O=C(O)C1OC(OC2C(C(=O)O)OC(OC3C(C(=O)O)OC(OC4C(C(=O)O)OC(O)C(O)C4O)C(O)C3O)C(O)C2O)C(O)C(O)C1O (centres unmarked)	Beta-lactoglobulin (LGB, Bos taurus, UniProt P02754, A134V/G80D)	isothermal titration calorimetry	–	concentration not given, pH 2.65, 37 °C, 50 mM KH2PO4	ligand per protein	binding stoichiometry	5.2
CCCCCC(O)/C=C/C=O (centres unmarked)	Glycine--tRNA ligase (Homo sapiens, UniProt P41250)	acylphosphate-ATP probe SILAC-ABPP, measured: GARS	ZAK-transfected HEK293T	100 µM, together with: acylphosphate-ATP probe	relative to: DMSO over compound-treated	probe labelling ratio	0.62
C#CCOC(=O)[C@]1(C)C=C(C(=O)OC(C)(C)C)C(=O)CC1	MAPK8	enzyme activity, D-SENSOR	–	0.1829 µM, single replicate	–	normalized kinase activity	0.997 and 1.05 and 1.06
CC(=O)N1c2ccc(-c3ccc(CNC(=O)c4cn5cc(-c6cnc(N)nc6)nc(N6CCOCC6)c5n4)cc3)cc2CC[C@@H]1C	Bromodomain-containing protein 3, BD1 (BRD3, Homo sapiens, UniProt Q15059)	binding, competition with immobilised ligand	–	10 µM	–	remaining binding	0.3%
Cc1cn(CC(=O)N(CC(=O)N[C@H]2COC[C@@H]2N(CC(=O)NCCOCCOCC(N)=O)C(=O)Cn2cnc3c(N)ncnc32)[C@H]2COC[C@@H]2NC(=O)CN(C(=O)Cn2cnc3c(N)ncnc32)[C@H]2COC[C@@H]2NC(=O)CN(C(=O)Cn2cnc3c(=O)[nH]c(N)nc32)[C@H]2COC[C@@H]2NC(=O)CN(C(=O)Cn2cc(C)c(=O)[nH]c2=O)[C@H]2COC[C@@H]2NC(=O)CN(C(=O)Cn2cnc3c(=O)[nH]c(N)nc32)[C@H]2COC[C@@H]2NC(=O)CN(C(=O)Cn2cc(C)c(=O)[nH]c2=O)[C@H]2COC[C@@H]2NC(=O)CN(C(=O)Cn2cnc3c(N)ncnc32)[C@H]2COC[C@@H]2NC(=O)CN(C(=O)Cn2cnc3c(=O)[nH]c(N)nc32)[C@H]2COC[C@@H]2N)c(=O)[nH]c1=O	complementary RNA	duplex formation, UV melting curve fit	PBS	1 µM	–	ΔS	-174.1 ± 1.2 cal/mol/K
CCCCCCCC/C=C\CCCCCCCC(=O)NCCO	Trpv1 (Mus musculus, UniProt Q704Y3, T557S)	ion current, agonist, whole-cell patch clamp	–	T557S	relative to: 3 mM 2-APB	maximal open probability	0.54 ± 0.19
COC(=O)[C@]1(Cc2ccccc2)C=C(C(=O)OC(C)(C)C)C(=O)CC1	MAPK8	D-peptide binding, inhibitor, FP peptide displacement	–	3.906 µM	lower is stronger displacement	fraction bound	0.76
Cc1cc(NC(=O)c2cccc(NC(=O)/C(C#N)=C/C(C)(C)C)c2)ccc1Nc1nccc(-c2cccnc2)n1	MAPK8	SPR two-step binding model	–	reversible bond formation	–	ΔΔG bond formation contribution	-2.25 kcal/mol
Nc1ncnc2c1ncn2C1OC(CN(CCCC2CNCc3c2ccc(Cl)c3Cl)CCC(N)C(=O)O)C(O)C1O (mixture of isomers)	PNMT (Homo sapiens, UniProt P11086)	ITC	–	second site, SAH bound	–	ΔG-2	-9.4 ± 0.03 kcal/mol
CC(C)(C)OC(=O)C1=C[C@@](C)(C(=O)OCC#Cc2ccncc2)CCC1=O	MAPK8	D-peptide binding, inhibitor, FP peptide displacement	–	1.562 µM	lower is stronger displacement	fraction bound	0.888
Cc1cc(Cl)cc(-c2ccnc3cc(CN4C(=O)C5C(C4=O)C5(C)C)sc23)c1C[C@@H]1CNCCO1 (some centres unmarked)	USP7 (Homo sapiens, UniProt Q93009, V517F)	enzyme activity, inhibitor, Ub-AMC	–	–	relative to: V517F over wild type	IC50 ratio	2250
CNC(=O)C[C@H](Cc1ccc(C#N)cc1)NC(=O)c1cc(-c2ccc(CN[C@H](C)c3ccc(C)cc3)o2)ccc1Cl	ATM (Homo sapiens, UniProt Q13315)	enzyme activity, inhibitor	–	1 µM	–	activity vs control	123%
CC(C)(C)OC(=O)NC(Cc1cccc(Cl)c1)C(=O)NCC=CS(=O)(=O)c1ccccc1 (centres unmarked)	Rhodesain (rhodesain, Trypanosoma brucei rhodesiense, UniProt Q95PM0)	inhibitor	–	pH 5.5, 37 °C, together with: Z-Phe-Arg-AMC	–	kinact/Ki	95900 M⁻¹ s⁻¹
CCCCCCCCCCCCC/C=C/C=O	Elongation factor 2 (EEF2, Homo sapiens, UniProt P13639)	competitive isoTOP-ABPP	Ramos soluble proteome	100 µM, together with: iodoacetamide probe	relative to: DMSO over compound-treated, higher = stronger cysteine blockade	isoTOP-ABPP competition ratio	1
Fc1ccc(Nc2nc(NC3CCCCC3)c3ccccc3n2)cc1F	ADRB2 (Homo sapiens, UniProt P07550, V126A)	β-arrestin2 recruitment, antagonist, BRET	–	mutant V126A	relative to: isoprenaline maximal response	maximal inhibition	6.9%
C[Si](C)(C)C[C@H](CN)CC(=O)O	BDKRB2 (Homo sapiens, UniProt P30411)	ligand displacement, radioligand	–	250 µM	–	inhibition	-9%
Cc1cc(=O)oc2cc(NC(=O)CCCCCCCC(=O)NO)ccc12	HDAC8 (Homo sapiens, UniProt Q9BY41)	ITC	Tris-HCl buffer	concentration not given, 293 K	–	binding stoichiometry	0.9

A few entries again:
Compound	target	assay	test system	conditions	scale	measurement	value
CC(=O)N1c2ccc(-c3ccc(CNC(=O)c4cn5cc(-c6cnc(N)nc6)nc(N6CCOCC6)c5n4)cc3)cc2CC[C@@H]1C	Bromodomain-containing protein 3, BD1 (BRD3, Homo sapiens, UniProt Q15059)	binding, competition with immobilised ligand	–	10 µM	–	remaining binding	0.3%
Cc1cn(CC(=O)N(CC(=O)N[C@H]2COC[C@@H]2N(CC(=O)NCCOCCOCC(N)=O)C(=O)Cn2cnc3c(N)ncnc32)[C@H]2COC[C@@H]2NC(=O)CN(C(=O)Cn2cnc3c(N)ncnc32)[C@H]2COC[C@@H]2NC(=O)CN(C(=O)Cn2cnc3c(=O)[nH]c(N)nc32)[C@H]2COC[C@@H]2NC(=O)CN(C(=O)Cn2cc(C)c(=O)[nH]c2=O)[C@H]2COC[C@@H]2NC(=O)CN(C(=O)Cn2cnc3c(=O)[nH]c(N)nc32)[C@H]2COC[C@@H]2NC(=O)CN(C(=O)Cn2cc(C)c(=O)[nH]c2=O)[C@H]2COC[C@@H]2NC(=O)CN(C(=O)Cn2cnc3c(N)ncnc32)[C@H]2COC[C@@H]2NC(=O)CN(C(=O)Cn2cnc3c(=O)[nH]c(N)nc32)[C@H]2COC[C@@H]2N)c(=O)[nH]c1=O	complementary RNA	duplex formation, UV melting curve fit	PBS	1 µM	–	ΔS	-174.1 ± 1.2 cal/mol/K
